Measured values collected from several papers.
Numbered parts are unrelated; each lists some results of a single study. “And” joins repeats or separate records; there may be more than shown. Positions count from the first letter of the parent shown. pIC50, pKi: −log10 of the molar value.
Chain of UniProt Q04759 (whole entry, looked up): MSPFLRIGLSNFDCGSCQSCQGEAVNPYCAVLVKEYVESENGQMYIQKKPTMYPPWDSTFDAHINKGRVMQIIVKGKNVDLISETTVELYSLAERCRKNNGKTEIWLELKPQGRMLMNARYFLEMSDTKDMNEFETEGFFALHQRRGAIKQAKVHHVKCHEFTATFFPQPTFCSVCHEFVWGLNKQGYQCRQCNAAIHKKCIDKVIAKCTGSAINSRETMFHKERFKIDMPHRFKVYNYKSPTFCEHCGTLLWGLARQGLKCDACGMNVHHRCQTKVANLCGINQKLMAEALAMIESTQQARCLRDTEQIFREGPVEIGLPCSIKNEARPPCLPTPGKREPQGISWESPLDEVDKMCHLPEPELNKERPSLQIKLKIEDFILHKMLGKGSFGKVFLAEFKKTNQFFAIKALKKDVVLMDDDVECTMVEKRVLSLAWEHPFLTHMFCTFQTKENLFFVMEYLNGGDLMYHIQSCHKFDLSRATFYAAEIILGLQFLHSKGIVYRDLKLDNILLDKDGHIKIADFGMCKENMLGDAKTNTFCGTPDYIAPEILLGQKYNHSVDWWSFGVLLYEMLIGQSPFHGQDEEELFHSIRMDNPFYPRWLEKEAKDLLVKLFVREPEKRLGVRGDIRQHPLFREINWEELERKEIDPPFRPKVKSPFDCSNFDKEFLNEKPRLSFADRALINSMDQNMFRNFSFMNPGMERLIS
Chain of UniProt P25100 (whole entry, looked up): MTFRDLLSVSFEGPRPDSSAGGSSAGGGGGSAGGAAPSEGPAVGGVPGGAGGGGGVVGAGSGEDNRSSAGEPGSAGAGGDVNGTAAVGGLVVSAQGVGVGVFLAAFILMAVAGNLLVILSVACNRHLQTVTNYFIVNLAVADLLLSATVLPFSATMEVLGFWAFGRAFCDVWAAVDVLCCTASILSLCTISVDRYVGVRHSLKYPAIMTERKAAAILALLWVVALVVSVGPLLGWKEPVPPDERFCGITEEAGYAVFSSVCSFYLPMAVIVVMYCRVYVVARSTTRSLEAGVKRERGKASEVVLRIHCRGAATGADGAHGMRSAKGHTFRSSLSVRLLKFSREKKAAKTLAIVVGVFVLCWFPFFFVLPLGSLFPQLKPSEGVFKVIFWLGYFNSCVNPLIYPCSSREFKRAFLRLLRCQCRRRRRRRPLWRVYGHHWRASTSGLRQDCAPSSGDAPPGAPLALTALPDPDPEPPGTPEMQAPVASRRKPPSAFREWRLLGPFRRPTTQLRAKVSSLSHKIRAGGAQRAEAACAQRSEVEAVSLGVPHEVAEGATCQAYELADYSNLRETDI
Chain of UniProt P41146 (whole entry, looked up): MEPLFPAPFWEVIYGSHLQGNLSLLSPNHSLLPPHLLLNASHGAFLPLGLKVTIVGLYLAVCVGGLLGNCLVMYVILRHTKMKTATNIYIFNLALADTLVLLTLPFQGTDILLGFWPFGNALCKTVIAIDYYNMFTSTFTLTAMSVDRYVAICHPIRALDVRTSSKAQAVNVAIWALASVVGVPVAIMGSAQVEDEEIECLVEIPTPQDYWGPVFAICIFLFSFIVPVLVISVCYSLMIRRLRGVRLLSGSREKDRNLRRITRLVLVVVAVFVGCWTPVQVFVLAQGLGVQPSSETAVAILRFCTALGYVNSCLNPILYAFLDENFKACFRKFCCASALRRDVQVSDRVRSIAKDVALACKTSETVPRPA
Chain of UniProt O75116 (whole entry, looked up): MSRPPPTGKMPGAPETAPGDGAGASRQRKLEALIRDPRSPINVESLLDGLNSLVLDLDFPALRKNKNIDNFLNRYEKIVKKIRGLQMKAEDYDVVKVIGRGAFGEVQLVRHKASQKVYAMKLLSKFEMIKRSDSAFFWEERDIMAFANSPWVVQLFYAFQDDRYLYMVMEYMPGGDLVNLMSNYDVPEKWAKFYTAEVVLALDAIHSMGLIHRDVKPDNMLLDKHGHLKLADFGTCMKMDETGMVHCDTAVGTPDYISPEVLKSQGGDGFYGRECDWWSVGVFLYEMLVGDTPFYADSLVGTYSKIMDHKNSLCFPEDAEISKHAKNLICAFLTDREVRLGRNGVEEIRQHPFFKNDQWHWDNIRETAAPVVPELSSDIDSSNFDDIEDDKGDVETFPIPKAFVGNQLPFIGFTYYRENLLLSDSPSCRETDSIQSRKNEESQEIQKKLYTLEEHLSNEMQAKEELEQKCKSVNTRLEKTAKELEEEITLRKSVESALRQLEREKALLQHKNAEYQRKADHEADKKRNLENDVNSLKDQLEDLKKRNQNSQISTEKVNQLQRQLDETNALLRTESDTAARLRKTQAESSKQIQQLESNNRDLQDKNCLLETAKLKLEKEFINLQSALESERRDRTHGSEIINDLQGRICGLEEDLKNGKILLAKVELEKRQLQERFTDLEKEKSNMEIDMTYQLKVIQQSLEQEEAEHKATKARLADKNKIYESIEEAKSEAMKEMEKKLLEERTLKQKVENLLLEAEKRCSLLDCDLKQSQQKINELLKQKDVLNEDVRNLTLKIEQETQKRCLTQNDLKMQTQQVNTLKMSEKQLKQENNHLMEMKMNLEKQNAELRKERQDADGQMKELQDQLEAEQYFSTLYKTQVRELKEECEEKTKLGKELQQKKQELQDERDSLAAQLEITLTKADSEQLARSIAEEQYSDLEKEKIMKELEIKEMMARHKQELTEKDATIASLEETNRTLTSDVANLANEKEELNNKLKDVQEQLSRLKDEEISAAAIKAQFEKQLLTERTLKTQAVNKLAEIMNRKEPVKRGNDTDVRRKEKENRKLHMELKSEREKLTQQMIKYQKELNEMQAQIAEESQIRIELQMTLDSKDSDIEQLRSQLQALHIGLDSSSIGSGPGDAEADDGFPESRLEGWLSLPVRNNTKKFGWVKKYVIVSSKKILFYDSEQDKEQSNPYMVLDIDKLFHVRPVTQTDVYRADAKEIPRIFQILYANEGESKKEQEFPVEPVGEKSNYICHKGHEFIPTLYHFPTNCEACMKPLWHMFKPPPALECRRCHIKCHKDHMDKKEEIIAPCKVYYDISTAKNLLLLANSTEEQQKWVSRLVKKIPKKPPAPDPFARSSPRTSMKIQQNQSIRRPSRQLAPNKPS
Chain of UniProt P36897 (whole entry, looked up): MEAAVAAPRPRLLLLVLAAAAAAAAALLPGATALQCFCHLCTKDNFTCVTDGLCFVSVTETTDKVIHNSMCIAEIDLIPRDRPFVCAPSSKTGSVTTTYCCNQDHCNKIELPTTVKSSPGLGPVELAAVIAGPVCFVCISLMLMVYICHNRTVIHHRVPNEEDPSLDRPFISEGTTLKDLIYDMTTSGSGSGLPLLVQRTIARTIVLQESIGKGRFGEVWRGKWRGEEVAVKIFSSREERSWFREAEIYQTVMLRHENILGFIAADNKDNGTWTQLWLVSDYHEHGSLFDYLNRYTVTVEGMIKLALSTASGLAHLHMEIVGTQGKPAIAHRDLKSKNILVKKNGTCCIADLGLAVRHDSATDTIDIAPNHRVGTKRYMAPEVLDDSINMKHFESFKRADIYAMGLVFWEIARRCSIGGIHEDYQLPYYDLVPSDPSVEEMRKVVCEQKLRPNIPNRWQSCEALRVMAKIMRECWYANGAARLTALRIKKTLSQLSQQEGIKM
Chain of UniProt Q14012 (whole entry, looked up): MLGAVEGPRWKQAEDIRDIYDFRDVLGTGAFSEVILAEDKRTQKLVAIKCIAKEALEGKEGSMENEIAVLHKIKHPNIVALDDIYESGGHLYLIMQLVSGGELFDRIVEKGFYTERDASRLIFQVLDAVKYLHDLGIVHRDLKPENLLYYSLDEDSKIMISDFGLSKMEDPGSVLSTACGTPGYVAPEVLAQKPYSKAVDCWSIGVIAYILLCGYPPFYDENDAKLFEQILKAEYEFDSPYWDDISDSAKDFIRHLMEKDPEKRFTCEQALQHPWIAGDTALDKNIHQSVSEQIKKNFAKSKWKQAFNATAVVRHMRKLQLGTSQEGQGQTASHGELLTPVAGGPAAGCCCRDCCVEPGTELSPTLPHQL
Chain of UniProt P35372 (whole entry, looked up): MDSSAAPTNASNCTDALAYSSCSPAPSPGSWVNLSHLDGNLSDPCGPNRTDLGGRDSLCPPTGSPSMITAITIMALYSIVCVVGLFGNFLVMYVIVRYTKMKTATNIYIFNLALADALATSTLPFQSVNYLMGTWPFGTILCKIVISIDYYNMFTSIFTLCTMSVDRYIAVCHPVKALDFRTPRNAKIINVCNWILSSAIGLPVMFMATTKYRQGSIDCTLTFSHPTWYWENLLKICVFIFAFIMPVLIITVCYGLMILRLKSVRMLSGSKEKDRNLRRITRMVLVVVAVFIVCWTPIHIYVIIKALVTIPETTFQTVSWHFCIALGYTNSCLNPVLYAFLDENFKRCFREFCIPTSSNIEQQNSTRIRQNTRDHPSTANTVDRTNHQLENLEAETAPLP

Block 1 — read-out: enzyme activity; mode: inhibitor; concentration: 10 µM
Target: Calcium/calmodulin-dependent protein kinase type II subunit alpha (CAMK2A, Homo sapiens, UniProt Q9UQM7)
Chain of UniProt Q9UQM7 (whole entry, looked up): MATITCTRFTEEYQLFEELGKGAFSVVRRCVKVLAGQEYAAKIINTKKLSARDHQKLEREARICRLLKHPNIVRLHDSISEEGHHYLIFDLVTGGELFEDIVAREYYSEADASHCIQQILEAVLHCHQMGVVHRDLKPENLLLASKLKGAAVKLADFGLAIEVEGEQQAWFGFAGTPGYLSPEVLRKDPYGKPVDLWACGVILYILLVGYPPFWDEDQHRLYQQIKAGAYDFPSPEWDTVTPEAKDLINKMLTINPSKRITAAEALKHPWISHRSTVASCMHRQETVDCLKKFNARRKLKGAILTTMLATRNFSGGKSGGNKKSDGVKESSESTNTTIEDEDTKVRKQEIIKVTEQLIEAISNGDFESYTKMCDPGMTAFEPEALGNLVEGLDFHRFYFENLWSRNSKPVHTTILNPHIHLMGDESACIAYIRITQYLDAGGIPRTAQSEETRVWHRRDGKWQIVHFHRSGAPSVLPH
Structure (SMILES)	inhibition [%]
CC(=O)[C@H]1CC[C@H]2[C@@H]3CC[C@H]4CC(=O)CC[C@]4(C)[C@H]3CC[C@]12C	-8
Cn1cncc1CCN	-15
CC(=O)O[C@@H]1C2[C@H]3C[C@H]4C5=Nc6ccccc6[C@]51C[C@@H]2N4[C@@H](C)[C@@H]3C=O (stereo partly drawn)	-13

Block 2 — cell line: HaCaT; concentration: 100 µM; time: 36 h
Compound	viability
CNC(=O)Oc1ccccc1OC(C)C	97.2%
CC(NC(C)(C)C)C(=O)c1cccc(Cl)c1 (stereo not drawn)	90.4%
C=C1CC[C@@]2(O)[C@H]3Cc4ccc(O)c5c4[C@@]2(CCN3CC2CC2)[C@H]1O5	95.6%
Nc1ccncc1	99.1%

Block 3 — host: C57BL/6 CES1-/- mouse, both sexes
Structure (SMILES): CC(=O)N[C@@H](Cc1c[nH]c2ccccc12)C(=O)N[C@@H](CCC(=O)C=[N+]=[N-])C(=O)OC(C)C
dose	time	body weight
1 mg/kg	day 11	93.1% and 100% and 90.9% and 105% and 93.9% and 95.5%
1 mg/kg	day 14	100% and 90.9% and 97% and 105% and 93.1%
0.1 mg/kg	day 10	95.5% and 100% and 96.2% and 105% and 96.6%

Block 4
SMILES: CNC(=O)c1ccc(-c2cnn3ccc(C(=O)N(C)c4ccc(Cl)c(C(=O)O)c4)cc23)cc1
target	read-out	mode	pIC50
rat benzodiazepine receptor	binding	–	< 4.52
EGFR (Homo sapiens, UniProt P00533)	enzyme activity	inhibitor	< 4.52
ROCK2 (Homo sapiens, UniProt O75116)	enzyme activity	inhibitor	< 4.52
FGFR3 (Homo sapiens, UniProt P22607)	enzyme activity	inhibitor	< 4.52
CHRM2 (Homo sapiens, UniProt P08172)	cell-free assay	–	< 4.52
PRKCA (Homo sapiens, UniProt P17252)	enzyme activity	inhibitor	< 4.52
ZAP70 (Homo sapiens, UniProt P43403)	enzyme activity	inhibitor	< 4.52
ATM (Homo sapiens, UniProt Q13315)	enzyme activity	inhibitor	5.42
SLC6A4 (Homo sapiens, UniProt P31645)	cell-free assay	–	< 4.52
CAMK1 (Homo sapiens, UniProt Q14012)	enzyme activity	inhibitor	< 4.52
GRK1 (Homo sapiens, UniProt Q15835)	enzyme activity	inhibitor	< 4.52
TGFBR1 (Homo sapiens, UniProt P36897)	enzyme activity	inhibitor	< 4.52
PRKCQ (Homo sapiens, UniProt Q04759)	enzyme activity	inhibitor	< 4.52
PRKACA (Homo sapiens, UniProt P17612)	enzyme activity	inhibitor	< 4.52
RPS6KB1 (Homo sapiens, UniProt P23443)	enzyme activity	inhibitor	< 4.52
OPRM1 (Homo sapiens, UniProt P35372)	cell-free assay	–	< 4.52

Single results of other studies — OGT: OGT, full length, His-tagged (human)
P1: peptide; VAYPNSYMPKYQIST; partner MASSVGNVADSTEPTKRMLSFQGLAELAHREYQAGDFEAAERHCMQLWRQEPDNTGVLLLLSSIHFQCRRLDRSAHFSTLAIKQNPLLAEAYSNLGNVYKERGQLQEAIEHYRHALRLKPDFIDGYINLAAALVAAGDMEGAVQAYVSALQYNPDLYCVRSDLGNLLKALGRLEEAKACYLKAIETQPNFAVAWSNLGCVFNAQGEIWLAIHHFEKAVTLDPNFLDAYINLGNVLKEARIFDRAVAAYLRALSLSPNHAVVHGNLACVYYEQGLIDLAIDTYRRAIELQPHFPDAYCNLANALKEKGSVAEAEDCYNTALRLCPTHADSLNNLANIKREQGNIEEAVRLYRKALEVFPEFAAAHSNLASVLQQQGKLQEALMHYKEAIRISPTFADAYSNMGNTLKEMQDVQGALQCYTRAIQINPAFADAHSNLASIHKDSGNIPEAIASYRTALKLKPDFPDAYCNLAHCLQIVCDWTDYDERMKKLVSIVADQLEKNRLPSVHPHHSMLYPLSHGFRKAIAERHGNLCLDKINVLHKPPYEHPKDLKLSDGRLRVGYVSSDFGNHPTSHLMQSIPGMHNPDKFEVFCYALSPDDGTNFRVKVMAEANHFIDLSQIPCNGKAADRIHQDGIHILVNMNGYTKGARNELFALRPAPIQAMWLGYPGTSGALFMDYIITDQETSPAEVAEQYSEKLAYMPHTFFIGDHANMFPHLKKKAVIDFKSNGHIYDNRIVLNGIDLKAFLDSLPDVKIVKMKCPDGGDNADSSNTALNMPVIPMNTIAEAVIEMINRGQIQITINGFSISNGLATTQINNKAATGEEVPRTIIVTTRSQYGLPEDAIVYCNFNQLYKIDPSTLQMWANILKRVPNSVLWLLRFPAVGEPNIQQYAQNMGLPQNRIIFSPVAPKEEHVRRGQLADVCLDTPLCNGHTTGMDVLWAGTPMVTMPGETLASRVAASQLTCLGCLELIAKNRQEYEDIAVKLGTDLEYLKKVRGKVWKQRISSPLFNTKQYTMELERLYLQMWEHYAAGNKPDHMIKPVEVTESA
Molecule	target or system	test	system	setting	scale	endpoint	value
CC(=O)Nc1c(C(C)=O)c(=O)n(C)c2nc(-c3ccc(Cl)cc3Cl)c(-c3ccc(Cl)cc3)cc12	Nociceptin receptor (OPRL1, Homo sapiens, UniProt P41146)	binding, radioligand binding	–	–	–	pKi	< 5.00
O=C1CCC(N2Cc3c(ccc4c3OCC43CCN(Cc4ccccc4)CC3)C2=O)C(=O)N1 (stereo not drawn)	–	–	ICR mouse, male, plasma	intravenous, 1.0 mg/kg	–	Vss	3.97 L/kg
Cc1c(N2CCNCC2)nc2ccc(Br)cc2c1C(=O)NC[C@H](CCC(=O)O)c1ccccc1Cl	ADRA1D (Homo sapiens, UniProt P25100)	ligand displacement	–	10 µM	–	inhibition	16%
P1 P4T	OGT	phage display, sequencing	in vitro	1 µg OGT, single substitutions, 15-mer displayed peptide, unchanged parent 6.14	relative to: input library, higher = stronger binding	fold enrichment	8 fold
CSc1cccnc1N1CCN(Cc2nc3ccccc3[nH]2)CC1	CDPK1 (Plasmodium falciparum, UniProt P62344)	cell-free assay, competition with immobilised ligand	–	1 µM	–	remaining binding	89%
P1 Y11N	OGT	phage display, sequencing	in vitro	1 µg OGT, single substitutions, 15-mer displayed peptide, unchanged parent 6.14	relative to: input library, higher = stronger binding	fold enrichment	0.563 fold
CNC(=O)c1cc(C(=O)NC2CC2)cn(Cc2ccccc2)c1=O	HRH4 (Homo sapiens, UniProt Q9H3N8)	binding, radioligand binding	–	10 µM	–	inhibition	16.1%
